Assay results collected from several papers.
A part holds a random share of what one study measured.

Block 1 — method: protein binding microarray; molecule type: double-stranded DNA, one strand shown; sample: in vitro; concentration: not given; reference: not given; reading: higher = stronger binding
Target: Histone acetyltransferase KAT6A, winged helix 1, GST fusion (KAT6A, Homo sapiens, UniProt Q92794, residues 1-85)
Setting: 8-mer, flanks averaged, mean of 2 arrays, mostly near background
Construct (chain): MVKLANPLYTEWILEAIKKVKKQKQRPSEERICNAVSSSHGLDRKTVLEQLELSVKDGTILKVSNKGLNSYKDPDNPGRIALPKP
Strand	E-score
ACAGGGCA	-0.242
AATGTGCA	-0.147
CAATATCG	0.0287
ATTATTTG	-0.259
TGCTATAA	-0.163
ATATGCCG	0.35
AGGTCCAA	-0.167
TCTCGGAA	-0.0541
ATTTGAAC	-0.0562
TAGGTTCA	-0.128
ACTCAAGT	-0.308
CTCAGCCA	-0.168
ACTAAAGA	-0.0132
ACTCTAGG	-0.103
CGAACAAA	-0.0374
ACCATAAC	-0.0254
GATTCACA	-0.199
CCCTGTAC	-0.101
ATGGTGTA	-0.0876
CATTTTAA	-0.0215

Block 2 — method: RNA Bind-n-Seq; molecule type: RNA; sample: in vitro; concentration: 365 nM; reference: no-protein control; reading: higher = stronger binding
Target: RNA binding protein fox-1 homolog 2, RRM domain, GST-SBP tag (RBFOX2, Homo sapiens, UniProt O43251-10, residues 100-194)
Setting: natural RNA segment, single round, ends assumed
All sequences stand within: GGGAGUUCUACAGUCCGACGAUC … UGGAAUUCUCGGGUGCCAA
Target sequence (chain): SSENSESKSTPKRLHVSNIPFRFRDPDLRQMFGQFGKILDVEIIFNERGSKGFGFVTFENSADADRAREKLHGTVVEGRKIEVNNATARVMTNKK
Strand	RBNS enrichment (R)
UUCCUUCAUGCCGCCAUGUUCCUGAUAUUAGUUCUGAUUUCUUUUUAACAAAUGUUAUCAUGAUUAAGAAAAUUUCCAGCACUUUAAUGGCCAAUUAACUGAGAAUGUAA	0.874
GGGCUCCUGCCCAGGACAGGCACCAGGGUCAUGGCCUGGGACCUGGACACUGGCCCCUCCACCCUCCCUCCCCUCCCGGCUCCCCGGCCAGAGGGAGAGCUUGGUCUCUG	0.28
CUCUCCUGCCCUCUGCUCUGCCUGGAGUGUCGGAUCCUGUGAGUAGGCUGGGCCUCCCCUGGGCAGGGUUCUCCAAGGGCCCGGUUUCCCGGCCCUUACCUUUCCUGAUG	0.402
AAAAAUGUGAUAUUCUUUGGACCACUUUUUUAAUUUAUAUAAGCCUUAAUGAACAGUGUCUAUACAUUUGCAUACACACACCCCCACCCCAGAGUGUUCUCAGUAUGUCA	0.582
AGCCCUAGAAAGCUGCCUCCGUCCAGAAAUGCCUCUCACACCAGGAGCUCGGCCCUCUCUUUGUAGCUGUGACUGUCACCCUCUCAGGCUUUGUCUCAUCCUUCAUUCUG	0.312
ACUGCUGCCACCUCUCUGGCCAAUGGCCCUUUCACUGGCCUGGUGACUGGAAUGUGGGCAGCGCCCACACAGGCUCUGGCCCAUGGCUUCCUACUGGCAGCUCCAGGCAC	0.264
AGGAAAAAGAAUGAUUGAUGUAUCCUAAGUAUUGUUAUUUGUUGUCUUUUUUUGCUGCCUUGCUUGAGUUGCUUGUGACUGAUCUUUUGAGGCUGUCAUCAUGGCUAGGG	6.21
GCAAGCUCAUCCGCACAGAAGAGGGAAGAGGGAGAUGCGUGGGGAAACUGAGUGAGUCGGAUUCCUCCAGGCCAGGUCUUCCCAGAACAGAGUCAGCCUCUAGUAGACCC	0.428
UUCAGGAACCUUGUCUGUUGUACAGGGAUAAAACCCACAAGAACAUGGGUACAGAACAGUUUUGGAAUGAACAUUGCCAGUGCUACAAUUGCACUAGUGGGGACUGCUUU	0.455
UUCAAGCUCAAACACCACCUCCCUUAUUCAGGACCGGCACUUCUUAAUGUUUGUGGCUUUCUCUCCAGCCUCUCUUAGGAGGGGUAAUGGUGGAGUUGGCAUCUUGUAAC	0.36
AGAUGUGUUUGCAGAAAGAAGGAACAAGGCAUCGGGAGAGCGUUUACUCCUAGUCCUACCAGUAAGGCGUCCACUUGCAAUGGUAACUGAGUCCACAAACAGCUGUUAGA	0.983
UCUGACUACUGUGCUAAGGUGUGUAUAAUGAACAUGGUAAUUCUAACCAGCUUUUUAAAAAUAUGUAGCGCUUGUCAUGAGAGGUACUGGGGAAAAGAAUGUGCAGUAGA	3.51

Block 3 — method: RNA Bind-n-Seq; molecule type: RNA; sample: in vitro; concentration: 200 nM; setting: whole 134-nt RNA, ends assumed; added: 150 mM KCl; reference: input library; reading: higher = stronger binding
Target: Ras GTPase-activating protein-binding protein 1, full length (G3BP1, Homo sapiens, UniProt Q13283)
Chain of UniProt Q13283 (whole entry, looked up): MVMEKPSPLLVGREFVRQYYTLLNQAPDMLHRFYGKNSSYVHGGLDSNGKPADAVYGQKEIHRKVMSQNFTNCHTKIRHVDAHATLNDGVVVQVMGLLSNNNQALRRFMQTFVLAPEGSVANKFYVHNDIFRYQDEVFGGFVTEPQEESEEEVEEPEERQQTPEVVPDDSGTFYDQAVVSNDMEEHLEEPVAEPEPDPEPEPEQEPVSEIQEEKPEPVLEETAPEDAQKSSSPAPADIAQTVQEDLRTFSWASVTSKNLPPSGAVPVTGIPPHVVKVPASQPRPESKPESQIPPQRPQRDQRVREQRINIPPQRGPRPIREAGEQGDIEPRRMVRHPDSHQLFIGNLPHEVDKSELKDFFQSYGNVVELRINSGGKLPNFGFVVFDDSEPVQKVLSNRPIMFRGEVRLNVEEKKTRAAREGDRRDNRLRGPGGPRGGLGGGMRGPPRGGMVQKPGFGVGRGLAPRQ
All sequences stand within: GGGAGUUCUACAGUCCGACGAUC … UGGAAUUCUCGGGUGUCAAGG
Strand	log2 enrichment
UCCUGUGCUACACAUCGUAUGUACCGAAUCGGGCCCCCCGGGCCCCCCGGGGCCCCCCGGAAAGUAUUAUGUUACGCCGUUCGGAUCUGC	-0.346
AGUCCUGUGCUACACAUCGUAUGUACCGAAUCGGGCCCCCGGGCCCCCGGGCCCCCGGAAAGUAUUAUGUUACGCCGUUCGGAUCUGCAC	-1.04
CCUCAAGUCCUGUGCUACACAUCGUAUGUACCGAAUCGGCGGGCGGGGCGGGGAAAGUAUUAUGUUACGCCGUUCGGAUCUGCACUUCCA	0.429
UGGCCCUGGUGGCAUGCGGGGAGGAAGAGGUGGCCUCAUGGAUCGUGGUGCUCCCGGUGGAAUGUUCAGAGGUGGCCGUGGUGGAGACAG	1.27
CCUCAAGUCCUGUGCUACACAUCGUAUGUACCGAAUCGGGUGGUGGGGUGGGGAAAGUAUUAUGUUACGCCGUUCGGAUCUGCACUUCCA	0.78
GUCCUGUGCUACACAUCGUAUGUACCGAAUCGGCCCCCGGGGCCCCCGGGCCCCCGGGGAAAGUAUUAUGUUACGCCGUUCGGAUCUGCA	-0.945
UAACUUUAGAGGAGGAUCUGAUGGAUAUGGCAGUGGACGUGGAUUUGGGGAUGGCUAUAAUGGGUAUGGAGGAGGACCUGGAGGUGGCAC	0.248
ACCAUGCAGGUGGGCAUCUUUGGGAACUGGGGCAAGGGGGGGAUAGGGAGGGGGGUAACACUUUGGGAACAGGUGGUCCCAGGUCGUUUC	1.17
CCUCAAGUCCUGUGCUACACAUCGUAUGUACCGAAUCGGUGGUGGGGUGGGGAAAGUAUUAUGUUACGCCGUUCGGAUCUGCACUUCCAG	0.387
CACAGACAGCACGCACCCACACAGACACAGAGGGAAGGGGUUGGGAUGGGGACAGGGUGCACAGCAGGGCGGGGUAGGACCCCAGCCCCU	1.77

Block 4 — method: aptamer microarray, sandwich; molecule type: DNA with 2'F-ANA; sample: in vitro; concentration: 200 nM; added: Cy3 exosite-II aptamer, 400 nM; reading: higher = stronger binding; strand: GGTTGGTGTGGTTGG
Target: Prothrombin, mature alpha-thrombin (F2, Homo sapiens, UniProt P00734)
Setting: whole 15-mer aptamer, many near background
Modification	mean fluorescence intensity [a.u.]
2'F-ANA at 1 5 6 7 8 9 13 15	49.5
2'F-ANA at 1 3 4 5 6 7 9 11 13	58.7
2'F-ANA at 1 2 3 7 11 14	71.9
2'F-ANA at 1 3 5 6 9 11 12	98.9
2'F-ANA at 2 3 7 10 11 13 15	325
2'F-ANA at 1 2 5 6 7 9 10 12 13 14	46.3
2'F-ANA at 1 4 5 7 9 11 12 14 15	45.5
2'F-ANA at 3 4 5 6 10 13	48.1
2'F-ANA at 5 6 9 11 12 15	110
2'F-ANA at 5 6 8 9 10 11 13 15	44.9
2'F-ANA at 1 2 5 7 10 13 15	46.3
2'F-ANA at 1 5 7 9 11 15	54.6
2'F-ANA at 1 4 7 11 12 15	230
2'F-ANA at 1 2 4 7 10 12 15	63.9
2'F-ANA at 1 3 8 9 10 12 13	116
2'F-ANA at 1 3 5 6 9 10 15	49.9
2'F-ANA at 1 3 6 10 11 12 13 14 15	59.7
2'F-ANA at 2 4 5 6 8 9 11 12 13 15	72.3
2'F-ANA at 4 6 8 10 11 12 14	55
2'F-ANA at 1 5 7 9 10 11 12	52.1
2'F-ANA at 2 3 4 10 13 14 15	180
2'F-ANA at 3 5 6 8 9 10 11 12 13	57.7
2'F-ANA at 4 5 6 7 12 13 15	84.6
2'F-ANA at 1 2 4 5 8 13 14 15	46
2'F-ANA at 1 2 3 8 10 11 14 15	51.7

A few entries again (block 1):
Strand	E-score
TCTCGGAA	-0.0541
AATGTGCA	-0.147
ACTCTAGG	-0.103
CATTTTAA	-0.0215
ACAGGGCA	-0.242
ACTAAAGA	-0.0132
